# Results gathered from unrelated publications.
# Numbered parts are unrelated; each lists some results of a single study. Changes are numbered by the printed parent chain.

# Block 1
# Target: ABI1, truncated, D143A, DHFR fusion (Arabidopsis thaliana)
# Method: DHFR PCA, deep sequencing
# Matrix: yeast
# Setting: methotrexate growth selection, single substitutions
# Together with: (+)-ABA 1.4 µM
# Baseline: wild-type fitted maximum
# Reading: higher = stronger binding
# Parent: PYL1, truncated, DHFR fusion (Arabidopsis thaliana); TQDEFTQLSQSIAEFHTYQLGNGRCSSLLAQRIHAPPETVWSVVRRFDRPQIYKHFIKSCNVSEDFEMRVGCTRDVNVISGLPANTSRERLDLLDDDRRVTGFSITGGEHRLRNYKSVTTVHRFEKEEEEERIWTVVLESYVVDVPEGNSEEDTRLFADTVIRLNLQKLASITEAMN; partner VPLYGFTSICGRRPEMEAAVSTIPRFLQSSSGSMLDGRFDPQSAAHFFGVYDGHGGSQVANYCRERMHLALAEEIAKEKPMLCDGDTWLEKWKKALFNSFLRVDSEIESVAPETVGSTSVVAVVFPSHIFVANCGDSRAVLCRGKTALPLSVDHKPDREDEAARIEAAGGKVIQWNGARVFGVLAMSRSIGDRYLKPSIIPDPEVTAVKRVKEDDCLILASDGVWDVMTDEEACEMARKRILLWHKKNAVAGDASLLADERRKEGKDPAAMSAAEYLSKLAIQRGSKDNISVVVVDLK
Substitution,relative binding score [%]
K116Q,42.6
R99D,-8.5
P37C,29.6
L156W,31
A30L,48.1
R90N,-14.2
A175L,32.1
P146F,-21.9
S140W,5.98
F103Q,-1.73
V118N,8.86
P83M,-6.77
G21I,34.8
L164E,5.11
L112N,-6.41
R163Y,-32
A175D,46.9
A35G,-0.504
H122W,-2.77
V70M,9.65
V44F,-23
G21A,57
C72F,10.3

# Block 2
# Target: CCNE2, cyclin fold, Cln2 fusion (human)
# Method: yeast growth competition, sequencing
# Matrix: yeast
# Setting: strong parent motif
# Baseline: not given
# Reading: higher = stronger binding
# Parent: GMNC docking peptide (human); KNAKRNLSSEFAN; partner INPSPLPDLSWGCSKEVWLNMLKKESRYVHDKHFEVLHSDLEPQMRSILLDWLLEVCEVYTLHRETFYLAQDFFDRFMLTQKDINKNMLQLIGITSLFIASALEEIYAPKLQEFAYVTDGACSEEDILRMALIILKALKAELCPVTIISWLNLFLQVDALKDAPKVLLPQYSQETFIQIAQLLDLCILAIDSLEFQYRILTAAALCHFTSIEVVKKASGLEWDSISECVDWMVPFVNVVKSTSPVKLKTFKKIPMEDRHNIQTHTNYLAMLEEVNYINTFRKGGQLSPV
Substitution,normalised enrichment score
A12L,1.07
F11E,0.251
N6Y,-0.379
R5F,0.212
S9P,0.879
L7W,0.0218
L7V,0.516
A3W,1.37
R5S,0.435
A12S,1.16
S9L,2.16
E10Q,1.24
N2A,0.799
K4C,2.36
N6G,0.376
S9M,1.61
A3M,0.195
A12P,0.457

# Block 3
# Target: JDP2, bZIP domain (human)
# Method: DHFR protein complementation
# Matrix: yeast
# Setting: single substitutions, most at no-binding floor
# Baseline: wild-type JUN-FOS pair
# Reading: higher = stronger binding
# Parent: JUN, bZIP domain (human); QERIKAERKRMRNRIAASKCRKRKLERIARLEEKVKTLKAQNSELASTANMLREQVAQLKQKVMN; partner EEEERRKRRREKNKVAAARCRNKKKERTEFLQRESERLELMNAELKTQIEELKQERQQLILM
Substitution,binding fitness [natural log]
K34H,0.399
A57R,0.258
I28C,0.194
I28Y,0.198
K36C,0.367
Q55K,0.235
N42K,0.125
K34N,0.259
K34E,0.28
S43V,0.194
L38Q,0.268
Q55S,0.292
K34V,0.274
T37V,0.312
A29R,0.232
K39Q,0.248
E54P,-0.531
E54C,0.176
T37N,0.375
Q55E,0.308
I28V,0.287
K36H,0.295
A40T,0.423
R30A,0.397

# Block 4
# Target: Histone acetyltransferase KAT6A, winged helix 2, GST fusion (KAT6A, Homo sapiens, UniProt Q92794, residues 85-181)
# Method: protein binding microarray
# Molecule type: double-stranded DNA, one strand shown
# Matrix: in vitro
# Tested at: not given
# Setting: 8-mer, flanks averaged, mean of 2 arrays, mostly near background
# Baseline: not given
# Reading: higher = stronger binding
# Residues (chain): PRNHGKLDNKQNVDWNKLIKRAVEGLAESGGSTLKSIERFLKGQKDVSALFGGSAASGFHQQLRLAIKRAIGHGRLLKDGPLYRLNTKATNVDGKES
Sequence,E-score
AAACGTAC,-0.141
CGTTAATC,-0.0636
GCGTGAAA,0.0395
GGGTTATA,-0.281
GTCGGGCA,0.104
ATTGTTGA,0.0544
ACAGTGGT,-0.0959
TCACGGCA,-0.00914
GAACTTGA,0.0898
AAGGCACA,0.111
ATTTCAAA,0.143
CCTTACGA,-0.0595
AACGGCCG,0.109
CAAGGGAA,-0.0193
CGACGCCG,0.226
ACCCTAAA,-0.018
CTGGTCAA,-0.00739
CGTGCCAC,-0.000375
ACATCCGG,0.165
ATAACGTG,-0.206
ATGGTCAA,0.0138
CATACATA,-0.0305
GTTCGAAC,0.0655
CACCCTAA,-0.124
GGAAATTA,-0.0289

# Block 5
# Target: Sal-like protein 4, full length isoform A (SALL4, Homo sapiens, UniProt Q9UJQ4, residues 1-1053)
# Chain of UniProt Q9UJQ4 (whole entry, looked up): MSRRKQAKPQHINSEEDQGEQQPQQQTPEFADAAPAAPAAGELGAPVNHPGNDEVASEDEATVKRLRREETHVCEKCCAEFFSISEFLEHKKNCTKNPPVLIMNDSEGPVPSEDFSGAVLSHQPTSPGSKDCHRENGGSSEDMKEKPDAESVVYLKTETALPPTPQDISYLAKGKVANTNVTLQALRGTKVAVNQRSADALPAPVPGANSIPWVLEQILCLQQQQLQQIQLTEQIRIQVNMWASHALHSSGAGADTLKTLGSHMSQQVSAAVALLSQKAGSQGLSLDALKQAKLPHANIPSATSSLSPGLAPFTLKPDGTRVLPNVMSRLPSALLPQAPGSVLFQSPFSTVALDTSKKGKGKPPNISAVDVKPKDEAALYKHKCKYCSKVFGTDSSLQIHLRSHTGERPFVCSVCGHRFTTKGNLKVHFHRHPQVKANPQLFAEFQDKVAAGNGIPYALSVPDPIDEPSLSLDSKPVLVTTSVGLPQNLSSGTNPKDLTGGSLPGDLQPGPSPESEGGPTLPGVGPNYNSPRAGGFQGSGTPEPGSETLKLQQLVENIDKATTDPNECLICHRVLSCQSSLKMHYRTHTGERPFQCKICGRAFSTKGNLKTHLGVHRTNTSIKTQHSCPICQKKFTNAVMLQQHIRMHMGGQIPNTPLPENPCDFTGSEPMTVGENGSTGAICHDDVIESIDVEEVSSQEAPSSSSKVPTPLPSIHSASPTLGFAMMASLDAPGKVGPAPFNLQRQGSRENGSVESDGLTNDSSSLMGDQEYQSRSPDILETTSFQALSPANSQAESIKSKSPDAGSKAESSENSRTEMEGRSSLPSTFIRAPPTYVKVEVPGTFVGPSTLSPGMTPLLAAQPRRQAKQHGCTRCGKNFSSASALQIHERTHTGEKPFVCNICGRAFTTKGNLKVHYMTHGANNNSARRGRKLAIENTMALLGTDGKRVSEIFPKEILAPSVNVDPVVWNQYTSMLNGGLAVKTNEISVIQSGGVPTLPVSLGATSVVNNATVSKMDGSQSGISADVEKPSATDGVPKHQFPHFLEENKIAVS
# Method: universal PBM
# Molecule type: double-stranded DNA, one strand shown
# Matrix: in vitro
# Tested at: 600 nM
# Setting: 8-mer, flanks averaged, mean of replicates
# Reading: higher = stronger binding
Sequence,E-score
AAGGTGAA,-0.0728
GAGTTAAC,0.0253
CAGGCCGG,-0.355
ATTAGTGC,0.0977
ACCCGTGA,-0.205
ACACGTCC,-0.123
GAGCGATA,0.0846
ACTAATCC,0.16
CCCGTCCG,-0.424
AAAAAATT,0.369
CAGCTTGC,-0.205
AGTAAAGA,0.148
GCCCGTAC,-0.231
CATTGACA,0.0955
TCGATTCA,0.0428
CTCATGTA,0.187
CCAGGTCC,-0.282
ACCACGCT,-0.252
ACGGCGGG,-0.269
CCTGTTAG,0.0137
GATGGGCC,-0.315
ATACAGGG,0.147
AAGCCAAA,-0.00156
GTACGGAA,-0.0476
CAGCGGCG,-0.227

# Block 6
# Target: Ras GTPase-activating protein-binding protein 1, RRM domain (G3BP1, Homo sapiens, UniProt Q13283)
# Chain of UniProt Q13283 (whole entry, looked up): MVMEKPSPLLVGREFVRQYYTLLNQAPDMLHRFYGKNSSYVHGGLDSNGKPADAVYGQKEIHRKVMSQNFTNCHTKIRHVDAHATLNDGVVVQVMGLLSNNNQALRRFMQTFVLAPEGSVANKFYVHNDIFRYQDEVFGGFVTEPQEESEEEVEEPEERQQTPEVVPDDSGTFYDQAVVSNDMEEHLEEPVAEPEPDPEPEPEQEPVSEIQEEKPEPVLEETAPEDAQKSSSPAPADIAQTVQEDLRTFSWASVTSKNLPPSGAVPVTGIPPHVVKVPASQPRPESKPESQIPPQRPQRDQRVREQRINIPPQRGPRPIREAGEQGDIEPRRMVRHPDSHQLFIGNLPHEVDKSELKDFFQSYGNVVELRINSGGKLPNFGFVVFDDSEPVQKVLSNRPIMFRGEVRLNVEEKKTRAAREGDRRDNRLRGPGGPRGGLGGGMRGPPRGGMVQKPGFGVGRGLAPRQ
# Method: RNA Bind-n-Seq
# Molecule type: RNA
# Matrix: in vitro
# Tested at: 1 µM
# Setting: whole 134-nt RNA, ends assumed
# Together with: 150 mM KCl
# Baseline: input library
# Reading: higher = stronger binding
Sequence,log2 enrichment
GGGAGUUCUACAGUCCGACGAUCAGUCCUGUGCUACACAUCGUAUGUACCGAAUCGGAAAAGGGGAAAAGGGGAAAAGGGAAAGUAUUAUGUUACGCCGUUCGGAUCUGCACUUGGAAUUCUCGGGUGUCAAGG,0.154
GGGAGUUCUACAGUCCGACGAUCCUCAAGUCCUGUGCUACACAUCGUAUGUACCGAAUCGGAGGUGGAAAAAAAGGAAAGUAUUAUGUUACGCCGUUCGGAUCUGCACUUCCAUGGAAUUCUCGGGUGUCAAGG,-0.266
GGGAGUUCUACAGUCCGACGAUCAAGUCCUGUGCUACACAUCGUAUGUACCGAAUCGGGGAAAAGGAAAAGGGAAAAGGAAAGUAUUAUGUUACGCCGUUCGGAUCUGCACUUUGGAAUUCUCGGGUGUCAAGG,-0.178
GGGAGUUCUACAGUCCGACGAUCAAGUCCUGUGCUACACAUCGUAUGUACCGAAUCAAAUUUUUAAACCCAAACCCAAAAAAGUAUUAUGUUACGCCGUUCGGAUCUGCACUUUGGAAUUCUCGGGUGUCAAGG,-0.295
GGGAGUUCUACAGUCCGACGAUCAGUCCUGUGCUACACAUCGUAUGUACCGAAUCGGGGAGGGGAAAAAAAGGGGUGGGGAAAGUAUUAUGUUACGCCGUUCGGAUCUGCACUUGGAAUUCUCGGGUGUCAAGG,0.884
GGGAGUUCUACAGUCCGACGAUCACCAUGCAGGUGGGCAUCUUUGGGAAGUGGGGCAAGGGGGGGAUAAAAAGGGGGGUAACACUUUGGGAACAGGUGGUCCCAGGUCGUUUCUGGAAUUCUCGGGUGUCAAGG,-0.323
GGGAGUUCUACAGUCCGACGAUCAAGUCCUGUGCUACACAUCGUAUGUACCGAAUCAAACCCAAAUUUAAAUUUUUAAAAAAGUAUUAUGUUACGCCGUUCGGAUCUGCACUUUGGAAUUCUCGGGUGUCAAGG,-0.547
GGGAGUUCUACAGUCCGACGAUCCACAGACAACACGCACCCACACAGACACAGAGGGAAGGGGUUUGGAUGGGGACAGGGUGCACAGCAGGGCGGGGUAGGACCCCAGCCCCUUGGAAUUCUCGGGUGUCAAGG,-0.0283
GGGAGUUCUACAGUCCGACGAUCACCAUGCAGGUGGGCAUCUUUGGGAAGUGGGGCAAGGGGGGGAUAGGGAGGGGGGUAACACUUUGGGAACAGGUGGUCCCAGGUCGUUUGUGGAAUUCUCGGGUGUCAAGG,0.923
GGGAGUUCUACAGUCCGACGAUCUAACUCUAGAGGAGGAUCUGAUGGAUAUGGCAGUGGACGUGGAUUUGGGGAUGGCUAUAAUGGGUAUGGAGGAGGACCUGGAGGUGGCAAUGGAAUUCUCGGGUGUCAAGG,-0.521
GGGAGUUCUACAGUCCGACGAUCUAAAUUUAGAGGAGGAUCUGAUGGAUAUGGCAGUGGACGUGGAUUUGGGGAUGGCUAUAAUGGGUAUGGAGGAGGACCUGGAGGUGGCAAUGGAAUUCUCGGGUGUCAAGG,-0.591
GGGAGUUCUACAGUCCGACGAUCCACAGACAACACGCACCCACACAGACACAGAGGGAAGGGGUUGGGAUGGGGACAGGGUGCACAGCAGGGCGGAGUAGGACCCCAGCCCCUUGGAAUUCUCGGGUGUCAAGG,-0.149
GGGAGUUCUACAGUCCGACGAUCCAAGUCCUGUGCUACACAUCGUAUGUACCGAAUCGGGGUGGGGUGGGGAAAGGGGAAAGUAUUAUGUUACGCCGUUCGGAUCUGCACUUCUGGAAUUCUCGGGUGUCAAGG,1.01
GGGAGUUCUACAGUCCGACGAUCUGGGAGGUGGAUUUUGUUAAUUUUUUUAGCUCAUUUCCAGGGGUGGGAAUUUUUUUUUAAUAUGUGUCAUGAAUAAAGUUGUUUUUGAAAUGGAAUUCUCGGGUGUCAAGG,0.902

# A few entries again (block 5):
Sequence,E-score
CAGGCCGG,-0.355
ATTAGTGC,0.0977
ACCCGTGA,-0.205
ACACGTCC,-0.123
GAGCGATA,0.0846
ACTAATCC,0.16
CCCGTCCG,-0.424
AAAAAATT,0.369
CAGCTTGC,-0.205
AGTAAAGA,0.148
GCCCGTAC,-0.231
CATTGACA,0.0955
TCGATTCA,0.0428
CTCATGTA,0.187
CCAGGTCC,-0.282
ACCACGCT,-0.252
ACGGCGGG,-0.269
